Literature values as cited in several papers.
Protocols differ between the studies behind these lines. ± gives the spread as reported.

Cc1cccnc1-n1cccc1C(=O)c1ccc(F)cc1
IC50 (Leishmania amazonensis; promastigotes): 16.9 µM

C/C=C1\NC(=O)[C@H](Cc2ccccc2)NC(=O)[C@H](C(C)C)NC(=O)[C@H](Cc2ccncc2)NC(=O)[C@H](CCC(N)=O)NC(=O)[C@H](Cc2c[nH]c3ccccc23)NC(=O)[C@H]2CSC[C@@H](C(=O)N[C@@H](CO)C(=O)O)NC(=O)[C@H](CSC[C@H]3NC(=O)[C@H]([C@@H](C)CC)NC(=O)[C@H](NC(=O)[C@H](Cc4c[nH]cn4)NC(=O)[C@@H](NC(=O)[C@@H](NC(=O)CNC(=O)[C@H](CO)NC(=O)CNC(=O)CNC(=O)[C@@H](N)CCCCN)C(C)C)[C@@H](C)CC)[C@H](C)SC[C@H](NC(=O)[C@H](CCC(=O)O)NC(=O)[C@H](Cc4c[nH]cn4)NC3=O)C(=O)N[C@@H](CCCNC(=N)N)C(=O)N[C@@H](CCSC)C(=O)N[C@@H](CC(N)=O)C(=O)N2)NC1=O
IC50 (Lactococcus lactis subsp. cremoris; cell growth; HP): 0.213 ± 0.009 µM

CNC(C)CCC(O)Cn1c2ccc(Cl)cc2c2cc(Cl)ccc21 (stereo not shown)
IC50 (Plasmodium; parasite growth): 0.07 µM

C/C=C(/C)C(=O)OC(C)c1cc2c(cc1OC)OC(C)(C)C=C2 (stereo not shown)
IC50 (Leishmania donovani; axenic amastigotes): 14.6 µg/mL

CC(=O)O[C@H](COP(=O)(O)O)[C@@H](OC(C)=O)C(=O)NO
IC50 (Trypanosoma brucei rhodesiense; parasite growth, whole parasite): 229 µM

C/C(=N/NC(=O)c1cc2ccccc2n1C)c1ccccc1O
IC50 (Leishmania major; promastigotes): 1.9 µM

COc1ccc(CNC(=O)c2[nH]c3cc(C)sc3c2CN2CCCCC2)cc1
IC50 (Giardia duodenalis; growth; assemblage B BRIS/91/HEPU/1279; 48 h): > 10 µM

O=C(NO)[C@H](O)[C@H](O)COP(=O)(O)O
IC50 (Trypanosoma brucei rhodesiense; parasite growth, whole parasite): > 389 µM

C/C=C1\NC(=O)[C@H](Cc2ccccc2)NC(=O)[C@H](C(C)C)NC(=O)[C@H](Cc2ccccc2)NC(=O)[C@H](CCC(N)=O)NC(=O)[C@H](Cc2c[nH]c3ccccc23)NC(=O)[C@H]2CSC[C@@H](C(=O)N[C@@H](CO)C(=O)O)NC(=O)[C@H](CSC[C@H]3NC(=O)[C@H]([C@@H](C)CC)NC(=O)[C@H](NC(=O)[C@H](Cc4c[nH]cn4)NC(=O)[C@@H](NC(=O)[C@@H](NC(=O)CNC(=O)[C@H](CO)NC(=O)CNC(=O)CNC(=O)[C@@H](N)CCCCN)C(C)C)[C@@H](C)CC)[C@H](C)SC[C@H](NC(=O)[C@H](CCC(=O)O)NC(=O)[C@H](Cc4c[nH]cn4)NC3=O)C(=O)N[C@@H](CC(N)=O)C(=O)N[C@@H](CCSC)C(=O)N[C@@H](CC(N)=O)C(=O)N2)NC1=O
IC50 (Lactococcus lactis subsp. cremoris; cell growth; HP): 0.785 µM

COC(=O)c1[nH]c(C(=O)OC)c2c1-c1c[nH]c3cc(Cl)cc(c13)[C@@]21C=Nc2ccc(Cl)cc21
IC50 (Leishmania amazonensis; promastigotes): 1.3 µM

O=[N+]([O-])c1ccc(C(c2c[nH]c3ccc(I)cc23)c2c[nH]c3ccc(I)cc23)cc1
IC50 (Leishmania donovani; amastigote): < 10 µM

COc1cc(O)c(-c2ccc(OC)c3c(O)cc(C)c(-c4cc(-c5c(O)cc(OC)c6c5C[C@H](C)N(C)[C@@H]6C)c5cc(C)cc(OC)c5c4O)c23)c2c1[C@@H](C)N(C)[C@H](C)C2
IC50 (Leishmania donovani; MHOM/ET/67/L82; amastigotes): 94.2 µM

O=c1ccn(Cc2cn(CCP(=O)(O)O)nn2)c(=O)[nH]1
IC50 (hepatitis C virus; viral replication): 16 µM

CC=C1NC(=O)[C@H](Cc2ccccc2)NC(=O)[C@H](C(C)C)NC(=O)[C@H](Cc2ccccc2)NC(=O)[C@H](CCC(N)=O)NC(=O)[C@H](Cc2c[nH]c3ccccc23)NC(=O)C2CSC[C@@H](C(=O)N[C@@H](CO)C(=O)O)NC(=O)[C@H](CSCC3NC(=O)[C@H]([C@@H](C)CC)NC(=O)C(NC(=O)[C@H](Cc4c[nH]cn4)NC(=O)[C@@H](NC(=O)[C@@H](NC(=O)CNC(=O)[C@H](CO)NC(=O)CNC(=O)CNC(=O)[C@@H](N)CCCCN)C(C)C)[C@@H](C)CC)C(C)SC[C@H](NC(=O)[C@H](CCC(=O)O)NC(=O)[C@H](Cc4c[nH]cn4)NC3=O)C(=O)N[C@@H](CC(N)=O)C(=O)N[C@@H](CCSC)C(=O)N[C@@H](CC(N)=O)C(=O)N2)NC1=O (stereo partly shown)
IC50 (Lactococcus lactis; HP): 0.75 µM

O=[N+]([O-])c1ccc(/C=N/N=C/c2ccc(OCc3ccccc3)cc2)o1
IC50 (Leishmania donovani; 9515, intracellular amastigotes): 0.25 ± 0.09 µM

CCOC(=O)c1csc(N/N=C(\C)c2cc3ccccc3oc2=O)n1
IC50 (Toxoplasma gondii): 55 µM

O=C(/C=C/c1ccc(O)c(O)c1)N1CCN(Cc2ccccc2)CC1
IC50 (Trypanosoma cruzi; amastigotes): 13 ± 7.1 µM

CN1CCC(c2cc(-c3ccc(F)cc3)c(-c3ccncc3)[nH]2)CC1
IC50 (Leishmania major; promastigotes): 0.6 µM

O=C(/C=C/c1ccccc1)OCc1ccc2c(c1)OCO2
IC50 (Leishmania infantum; parasite growth): 42.8 µM

Excerpt of the above:
O=[N+]([O-])c1ccc(/C=N/N=C/c2ccc(OCc3ccccc3)cc2)o1
IC50 (Leishmania donovani; 9515, intracellular amastigotes): 0.25 ± 0.09 µM

CCOC(=O)c1csc(N/N=C(\C)c2cc3ccccc3oc2=O)n1
IC50 (Toxoplasma gondii): 55 µM
